Experimental data gathered from unrelated publications.
Lines come from different studies, so protocols differ.
Cell line: HCT-15

Structure (SMILES) = CCC(=C(c1ccc(Cl)cc1)c1ccc(OCCCN(C)C)cc1)c1ccc(OC)cc1; effect on = cell growth or viability; method = SRB; quantity = GI50; result = 1.44 µM
Structure (SMILES) = COc1ccc2c(c1)/C(=N\Nc1nnc3n1N=C(c1ccccc1)CS3)C(=O)N2; effect on = cell growth or viability; method = SRB; tested at = 10 µM; quantity = inhibition; result = 10%
Structure (SMILES) = COc1cc(CNC(=O)C[C@H](C)CCC=C(C)C)ccc1OCc1cn(-c2ccc(C#N)cc2)nn1; method = SRB; tested at = 10 µM; time = 48 h; quantity = growth percent; result = 66.2%
Structure (SMILES) = Clc1cccc(Nc2nc(NCc3ccccc3)c3ccccc3n2)c1; effect on = cell growth or viability; time = 24 h; quantity = GI50; result = 5 µM
Structure (SMILES) = CC/C=C\C/C=C\C/C=C\C/C=C\C/C=C\C/C=C\CCC(=O)Nc1ccn(C2OC(CO)C(O)C2(F)F)c(=O)n1 (centres unmarked); method = NCI60 screen; quantity = TGI; result = 25.3 µM
Structure (SMILES) = COc1cc(/C=C/C(=O)/C=C(O)/C=C/c2ccc(OCC(=O)N3CCOCCOCCOCC3)c(OC)c2)ccc1OCC(=O)N1CCOCCOCCOCC1; effect on = cell growth or viability; method = SRB; tested at = 5 µM; quantity = inhibition; result = 25%
Structure (SMILES) = Fc1cccc(CNc2nc(NCc3ccccc3)c3ccccc3n2)c1; effect on = cell growth or viability; time = 72 h; quantity = GI50; result = 3.5 µM
Structure (SMILES) = CC(=O)OC[C@H]1O[C@@H](Sc2sc(C(=O)c3ccc(C)cc3)c(N)c2-c2nc3ccccc3s2)[C@H](OC(C)=O)[C@@H](OC(C)=O)[C@H]1OC(C)=O; method = SRB; tested at = 10 µM; time = 48 h; baseline = untreated; quantity = growth; result = 92.5%
Structure (SMILES) = CC(Cc1ccc(Cl)cc1)=C(c1ccc(Cl)cc1)c1ccc(OCCN(C)C)cc1; effect on = cell growth or viability; method = SRB; quantity = GI50; result = 1.19 µM
Structure (SMILES) = CC(=O)OC[C@H]1O[C@@H](Sc2sc(C(=O)c3ccc(Br)cc3)c(N)c2-c2nc3ccccc3s2)[C@H](OC(C)=O)[C@@H](OC(C)=O)[C@@H]1OC(C)=O; method = SRB; tested at = 10 µM; time = 48 h; baseline = untreated; quantity = growth; result = 18.6%
Structure (SMILES) = COc1cc(CNC(=O)C[C@H](C)CCC=C(C)C)ccc1OCc1cn(-c2cccc(Cl)c2)nn1; method = SRB; tested at = 10 µM; time = 48 h; quantity = growth percent; result = 81.4%
Structure (SMILES) = CC(=O)OCC1(O)C(Nc2cccc(C(C)=O)c2)C(N)C(NC(=O)N(C)C)(C(C)OC(C)=O)C1(C)O (centres unmarked); effect on = cell growth or viability; method = SRB; quantity = GI50; result = 10.2 µM
Structure (SMILES) = FC(F)(F)c1ccc(CNc2nc(NCc3ccccc3)c3ccccc3n2)cc1; effect on = cell growth or viability; time = 72 h; quantity = GI50; result = 2 µM
Structure (SMILES) = COc1cc(CNC(=O)C[C@H](C)CCC=C(C)C)ccc1OCc1cn(-c2ccc(Br)cc2)nn1; method = SRB; tested at = 10 µM; time = 48 h; quantity = growth percent; result = 82.3%
Structure (SMILES) = COc1cccc2c(NCc3ccccc3)nc(Nc3cccc(Cl)c3)nc12; effect on = cell growth or viability; time = 72 h; quantity = GI50; result = 19 µM
Structure (SMILES) = COc1cc(CNC(=O)C[C@H](C)CCC=C(C)C)ccc1OCc1cn(-c2ccccc2F)nn1; method = SRB; tested at = 10 µM; time = 48 h; quantity = growth percent; result = 82.8%
Structure (SMILES) = COc1cccc(CNc2nc(NCc3ccccc3)c3ccccc3n2)c1; effect on = cell growth or viability; time = 72 h; quantity = GI50; result = 3.9 µM
Structure (SMILES) = COc1cc(CNC(=O)C[C@H](C)CCC=C(C)C)ccc1OCc1cn(-c2ccc([N+](=O)[O-])cc2)nn1; method = SRB; tested at = 10 µM; time = 48 h; quantity = growth percent; result = 71.8%
Structure (SMILES) = Brc1cccc(CNc2nc(NCc3ccccc3)c3ccccc3n2)c1; effect on = cell growth or viability; time = 24 h; quantity = GI50; result = 3.4 µM
Structure (SMILES) = COc1cc(CNC(=O)C[C@H](C)CCC=C(C)C)ccc1OCc1cn(-c2ccccc2)nn1; method = SRB; tested at = 10 µM; time = 48 h; quantity = growth percent; result = 88%

Some of these lines once more:
Structure (SMILES) = COc1ccc2c(c1)/C(=N\Nc1nnc3n1N=C(c1ccccc1)CS3)C(=O)N2; effect on = cell growth or viability; method = SRB; tested at = 10 µM; quantity = inhibition; result = 10%
Structure (SMILES) = COc1cc(CNC(=O)C[C@H](C)CCC=C(C)C)ccc1OCc1cn(-c2ccc([N+](=O)[O-])cc2)nn1; method = SRB; tested at = 10 µM; time = 48 h; quantity = growth percent; result = 71.8%
Structure (SMILES) = Fc1cccc(CNc2nc(NCc3ccccc3)c3ccccc3n2)c1; effect on = cell growth or viability; time = 72 h; quantity = GI50; result = 3.5 µM
